Published values of several laboratories.
Lines come from different studies, so protocols differ. Numbers after ± are the reported error.

Clc1ccc(-c2nc3ccccc3[nH]2)cc1 gave an LC50 of 148 µg/mL (Artemia salina; 24 h).
With CCOP(=S)(OCC)Oc1nc(Cl)c(Cl)cc1Cl the LC50 was 0.0029 µM (Daphnia magna; 48 h).
CCCCCCCCCN(C)C — result for “intrinsic clearance in vitro”: 2.14 mL/h/mg S9 protein (Oncorhynchus mykiss; liver S9 substrate depletion; rainbow trout liver S9; tested individually).
For O=c1c2ccccc2[se]n1-c1ccccc1, the EC50 was 8.9 ± 0.7 µM (Trypanosoma brucei; cell viability, flow cytometry, PI; bloodstream form; 24 h).
With CN[C@@](C)(C[18F])C(=O)O the tracer uptake was 22 %ID/g (DU-145 tumour model; host not given, pancreas; 2 h, tumour-bearing).
O=S1OCC2C(CO1)C1(Cl)C(Cl)=C(Cl)C2(Cl)C1(Cl)Cl (stereo not drawn) gave an LC50 of 4.64 µM (Daphnia magna; neonates under 24 h; 48 h).
Clc1ccc(Cn2c(-c3ccc(Cl)cc3)nc3ccccc32)cc1 has an LC50 of 21.9 µg/mL (Artemia salina; 24 h).
The EC50 of NC(Cc1cc(O)c(O)cc1O)C(=O)O (racemic) is reported as > 100 µM (Leishmania donovani; intracellular amastigote).
With C/C(=N\C#N)N(C)Cc1ccc(Cl)nc1 the LC50 was 0.12 mg/kg dry soil (Folsomia candida; survival, OECD 232; LUFA 2.2 soil; 28 days).
CCCCCCCCCCCCN(C)C: “intrinsic clearance in vivo” 288 mL/h/g liver (Oncorhynchus mykiss; liver S9 substrate depletion; pooled rainbow trout liver S9; pH 7.8, tested individually).
The LC50 of Oc1ccc(Cn2c(-c3ccc(O)cc3)nc3ccccc32)cc1 is reported as 116 µg/mL (Artemia salina; 24 h).
CNC(=O)c1cc(Cl)cc(C)c1NC(=O)c1cc(Br)nn1-c1ncccc1Cl gave a mortality of 69 ± 13% (Apis mellifera; acute contact toxicity; female worker bees; topical, 0.2 µg/bee, 48 h, together with: propiconazole 10 µg/bee 1 h before).
For Oc1cc(Cl)ccc1Oc1ccc(Cl)cc1Cl, the LC50 was 0.995 to 1.19 µM (Daphnia magna; neonates under 24 h; 48 h).
Under “intrinsic clearance in vivo”, CCCCCCCCCCCCCN(C)C is recorded as 189 mL/h/g liver (Oncorhynchus mykiss; liver S9 substrate depletion; rainbow trout liver S9; tested individually).
CCCC(CCC)C(=O)Nc1ccccc1O — result for “lowest effective concentration”: 0.56 mM (Artemia franciscana; body length; larvae; 24 and 48 h, 0.17% DMSO).
